Measurements pooled from the literature.
Numbered parts are unrelated; each lists some results of a single study. ± gives the spread as reported.
UniProt P08603, sequence (whole entry, unmodified, looked up): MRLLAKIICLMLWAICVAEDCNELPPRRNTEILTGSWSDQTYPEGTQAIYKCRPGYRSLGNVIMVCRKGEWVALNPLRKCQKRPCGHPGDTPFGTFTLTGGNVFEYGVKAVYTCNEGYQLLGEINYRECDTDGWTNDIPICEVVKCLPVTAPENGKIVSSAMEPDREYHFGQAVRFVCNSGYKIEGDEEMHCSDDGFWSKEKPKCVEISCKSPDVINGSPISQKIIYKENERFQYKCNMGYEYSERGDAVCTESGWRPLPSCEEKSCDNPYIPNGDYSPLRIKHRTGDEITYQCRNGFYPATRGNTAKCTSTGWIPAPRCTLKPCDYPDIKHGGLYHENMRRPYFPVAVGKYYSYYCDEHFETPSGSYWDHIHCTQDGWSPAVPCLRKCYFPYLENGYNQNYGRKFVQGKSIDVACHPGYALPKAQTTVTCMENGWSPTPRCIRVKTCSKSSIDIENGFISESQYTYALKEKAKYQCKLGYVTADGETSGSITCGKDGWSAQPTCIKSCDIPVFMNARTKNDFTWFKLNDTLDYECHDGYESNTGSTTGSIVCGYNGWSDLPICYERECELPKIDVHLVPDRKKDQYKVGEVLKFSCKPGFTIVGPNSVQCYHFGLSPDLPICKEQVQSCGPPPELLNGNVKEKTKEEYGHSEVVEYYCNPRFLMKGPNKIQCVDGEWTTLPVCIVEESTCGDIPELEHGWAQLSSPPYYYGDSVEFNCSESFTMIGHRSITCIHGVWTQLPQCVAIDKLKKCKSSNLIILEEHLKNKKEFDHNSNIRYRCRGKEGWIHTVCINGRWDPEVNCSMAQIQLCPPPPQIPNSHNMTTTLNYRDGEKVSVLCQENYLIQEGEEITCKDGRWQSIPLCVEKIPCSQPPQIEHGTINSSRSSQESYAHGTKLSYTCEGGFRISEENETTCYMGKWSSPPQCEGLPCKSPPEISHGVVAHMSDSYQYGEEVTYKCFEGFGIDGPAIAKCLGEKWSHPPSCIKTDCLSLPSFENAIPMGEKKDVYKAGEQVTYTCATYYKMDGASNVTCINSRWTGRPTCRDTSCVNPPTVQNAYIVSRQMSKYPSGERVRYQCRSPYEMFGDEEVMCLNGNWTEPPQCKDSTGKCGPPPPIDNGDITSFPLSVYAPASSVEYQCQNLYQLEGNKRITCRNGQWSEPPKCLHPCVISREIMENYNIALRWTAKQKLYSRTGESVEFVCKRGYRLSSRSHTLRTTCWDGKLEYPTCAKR

Block 1
Form: peptide
Cell line: tetramer-reactive CD8+ T cells
Species: COVID-19 convalescent HLA-A*02:01 subjects
`IRQEEVQEL` — result for “number of clonotypes”: 2.
Under “number of clonotypes”, `KRVDWTIEY` is recorded as 0.
`STSAFVETV` — result for “number of clonotypes”: 5.
For `FAVDAAKAY`, “number of clonotypes” read 2.
Under “number of clonotypes”, `QLTPTWRVY` is recorded as 2.

Other studies, line by line
With `cbpA fragment (Streptococcus pneumoniae)` the Kd was 3.58 ± 1.8 µM (CFH 508-567 L543T (Homo sapiens, UniProt P08603); ITC).
For `GTCTTTAATAATTAAACTAGTGTCTTGACAGATGTAAACAACAGGTATAAAC (dsDNA)`, binding read “binds” (niaR 1-174 K16A (Streptococcus mutans, UniProt Q8DVX8); EMSA; double-stranded DNA, one strand shown).
Under “protein level ratio”, `TFFRLFNRSFTGRRRRSVQWCA` is recorded as -5.09 (Streptococcus mutans; 2D-DIGE, refers to: cysteine synthase A; peptide, UA159; 20 µg/mL, 1 h; reference: water control).
Under “macrophage and dendritic cell increase”, `trehalose dimycolate` is recorded as 25 ± 6.4% (flow cytometry; C57BL/6 mice, lung; intravenous, 100 µg, day 5; reference: vehicle).
`autoinducing peptide I` has an EC50 of over 10 µM (AgrC-I G394A G396A (Staphylococcus aureus); reporter gene, agonist; Staphylococcus aureus P3-blaZ reporter, Staphylococcus aureus).
